# Measured values gathered from unrelated publications.
# Numbered parts are unrelated; each lists some results of a single study.
# Sequence of UniProt P07949 (whole entry, unmodified, looked up): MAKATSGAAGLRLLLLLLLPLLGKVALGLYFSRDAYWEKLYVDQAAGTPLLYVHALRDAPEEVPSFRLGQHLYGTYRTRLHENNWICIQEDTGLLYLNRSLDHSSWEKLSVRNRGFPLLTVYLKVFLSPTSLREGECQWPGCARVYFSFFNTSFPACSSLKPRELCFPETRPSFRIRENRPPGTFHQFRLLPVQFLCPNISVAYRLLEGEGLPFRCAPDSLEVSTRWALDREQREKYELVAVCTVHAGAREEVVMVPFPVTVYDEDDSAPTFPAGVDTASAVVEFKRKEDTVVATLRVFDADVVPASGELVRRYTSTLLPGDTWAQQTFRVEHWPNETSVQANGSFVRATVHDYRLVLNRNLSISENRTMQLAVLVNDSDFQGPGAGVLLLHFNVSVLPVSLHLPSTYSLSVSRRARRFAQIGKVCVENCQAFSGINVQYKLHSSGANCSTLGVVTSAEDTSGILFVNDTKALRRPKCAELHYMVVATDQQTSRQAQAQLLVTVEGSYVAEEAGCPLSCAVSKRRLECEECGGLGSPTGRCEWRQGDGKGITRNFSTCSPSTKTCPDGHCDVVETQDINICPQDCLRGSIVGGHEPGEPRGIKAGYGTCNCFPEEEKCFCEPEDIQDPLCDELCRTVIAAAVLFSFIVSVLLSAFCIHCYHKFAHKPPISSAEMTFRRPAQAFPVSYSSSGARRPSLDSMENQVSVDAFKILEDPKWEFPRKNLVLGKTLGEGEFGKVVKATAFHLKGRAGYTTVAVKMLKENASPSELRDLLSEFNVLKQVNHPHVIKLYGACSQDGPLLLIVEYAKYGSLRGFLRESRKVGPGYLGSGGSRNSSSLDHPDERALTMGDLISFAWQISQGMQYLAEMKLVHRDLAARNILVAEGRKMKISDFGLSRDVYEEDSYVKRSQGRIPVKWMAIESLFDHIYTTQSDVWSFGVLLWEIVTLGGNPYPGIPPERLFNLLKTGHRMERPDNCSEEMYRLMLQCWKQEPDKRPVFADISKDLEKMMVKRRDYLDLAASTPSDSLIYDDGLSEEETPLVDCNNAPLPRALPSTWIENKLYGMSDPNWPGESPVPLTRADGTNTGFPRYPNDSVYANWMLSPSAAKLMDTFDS
# Sequence of UniProt O00238 (whole entry, looked up): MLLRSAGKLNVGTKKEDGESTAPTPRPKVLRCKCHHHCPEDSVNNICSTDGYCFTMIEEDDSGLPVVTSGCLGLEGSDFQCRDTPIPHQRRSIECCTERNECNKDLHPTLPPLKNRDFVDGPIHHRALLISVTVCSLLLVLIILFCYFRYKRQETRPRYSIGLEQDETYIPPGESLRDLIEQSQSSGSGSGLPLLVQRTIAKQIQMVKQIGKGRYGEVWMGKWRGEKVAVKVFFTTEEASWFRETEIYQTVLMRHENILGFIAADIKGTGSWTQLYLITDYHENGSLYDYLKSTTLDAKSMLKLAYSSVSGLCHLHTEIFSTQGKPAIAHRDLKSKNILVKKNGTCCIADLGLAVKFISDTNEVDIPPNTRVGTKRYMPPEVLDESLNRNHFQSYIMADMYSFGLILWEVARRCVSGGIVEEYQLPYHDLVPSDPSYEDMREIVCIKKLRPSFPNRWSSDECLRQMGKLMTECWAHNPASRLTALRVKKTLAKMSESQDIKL
# Sequence of UniProt P11362 (whole entry, looked up): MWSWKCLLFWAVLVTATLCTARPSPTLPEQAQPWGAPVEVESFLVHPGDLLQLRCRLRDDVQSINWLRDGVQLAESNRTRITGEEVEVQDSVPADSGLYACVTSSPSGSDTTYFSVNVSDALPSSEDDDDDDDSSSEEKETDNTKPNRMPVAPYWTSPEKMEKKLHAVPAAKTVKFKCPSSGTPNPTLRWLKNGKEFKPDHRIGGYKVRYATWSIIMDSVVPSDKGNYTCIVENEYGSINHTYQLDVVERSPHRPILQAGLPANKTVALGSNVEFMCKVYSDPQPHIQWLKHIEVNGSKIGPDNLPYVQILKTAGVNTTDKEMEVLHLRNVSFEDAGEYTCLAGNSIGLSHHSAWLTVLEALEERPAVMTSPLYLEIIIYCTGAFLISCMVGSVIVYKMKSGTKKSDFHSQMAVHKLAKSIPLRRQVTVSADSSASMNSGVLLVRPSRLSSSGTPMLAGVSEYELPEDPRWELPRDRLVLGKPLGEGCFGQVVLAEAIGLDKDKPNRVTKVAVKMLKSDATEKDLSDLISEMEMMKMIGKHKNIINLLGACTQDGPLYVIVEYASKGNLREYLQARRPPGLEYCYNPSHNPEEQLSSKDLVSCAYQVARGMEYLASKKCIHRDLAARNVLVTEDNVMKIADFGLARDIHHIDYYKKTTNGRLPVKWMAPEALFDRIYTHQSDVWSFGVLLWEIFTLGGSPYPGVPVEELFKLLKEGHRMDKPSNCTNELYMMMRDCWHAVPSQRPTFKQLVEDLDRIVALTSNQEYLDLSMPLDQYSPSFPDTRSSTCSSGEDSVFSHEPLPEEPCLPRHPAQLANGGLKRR
# Sequence of UniProt P11802 (whole entry, looked up): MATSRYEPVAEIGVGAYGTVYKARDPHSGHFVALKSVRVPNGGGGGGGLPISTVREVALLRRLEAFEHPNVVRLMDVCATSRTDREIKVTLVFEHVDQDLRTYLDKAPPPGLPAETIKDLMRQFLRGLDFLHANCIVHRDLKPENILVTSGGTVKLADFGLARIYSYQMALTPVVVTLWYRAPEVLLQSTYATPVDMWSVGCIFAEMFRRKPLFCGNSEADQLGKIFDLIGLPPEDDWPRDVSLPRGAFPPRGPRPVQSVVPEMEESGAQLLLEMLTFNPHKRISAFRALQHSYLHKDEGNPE
# Sequence of UniProt Q38831 (whole entry, looked up): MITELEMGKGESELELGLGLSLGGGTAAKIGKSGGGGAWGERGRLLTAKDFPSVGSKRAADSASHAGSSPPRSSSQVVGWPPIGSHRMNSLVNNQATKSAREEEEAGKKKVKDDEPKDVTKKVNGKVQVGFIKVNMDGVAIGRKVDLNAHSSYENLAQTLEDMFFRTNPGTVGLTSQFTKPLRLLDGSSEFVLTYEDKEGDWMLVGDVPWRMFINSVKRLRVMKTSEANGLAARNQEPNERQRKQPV
# Sequence of UniProt Q9FX25 (whole entry, looked up): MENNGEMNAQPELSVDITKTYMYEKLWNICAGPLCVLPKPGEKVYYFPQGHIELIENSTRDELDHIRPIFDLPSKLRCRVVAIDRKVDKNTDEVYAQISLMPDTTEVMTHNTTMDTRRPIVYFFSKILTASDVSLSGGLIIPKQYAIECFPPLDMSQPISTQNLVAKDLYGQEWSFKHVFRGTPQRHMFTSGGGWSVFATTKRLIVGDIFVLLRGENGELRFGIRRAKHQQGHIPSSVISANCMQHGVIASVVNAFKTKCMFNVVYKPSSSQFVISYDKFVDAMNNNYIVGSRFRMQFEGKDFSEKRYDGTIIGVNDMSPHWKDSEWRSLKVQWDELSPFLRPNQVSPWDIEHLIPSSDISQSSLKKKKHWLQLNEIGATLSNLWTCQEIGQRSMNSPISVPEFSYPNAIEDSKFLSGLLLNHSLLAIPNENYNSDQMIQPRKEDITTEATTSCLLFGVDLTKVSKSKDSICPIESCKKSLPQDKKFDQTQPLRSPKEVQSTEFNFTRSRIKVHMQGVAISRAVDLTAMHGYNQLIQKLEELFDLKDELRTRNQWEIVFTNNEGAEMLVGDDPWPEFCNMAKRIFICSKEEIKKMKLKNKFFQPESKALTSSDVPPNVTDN
# Sequence of UniProt Q8L7G0 (whole entry, looked up): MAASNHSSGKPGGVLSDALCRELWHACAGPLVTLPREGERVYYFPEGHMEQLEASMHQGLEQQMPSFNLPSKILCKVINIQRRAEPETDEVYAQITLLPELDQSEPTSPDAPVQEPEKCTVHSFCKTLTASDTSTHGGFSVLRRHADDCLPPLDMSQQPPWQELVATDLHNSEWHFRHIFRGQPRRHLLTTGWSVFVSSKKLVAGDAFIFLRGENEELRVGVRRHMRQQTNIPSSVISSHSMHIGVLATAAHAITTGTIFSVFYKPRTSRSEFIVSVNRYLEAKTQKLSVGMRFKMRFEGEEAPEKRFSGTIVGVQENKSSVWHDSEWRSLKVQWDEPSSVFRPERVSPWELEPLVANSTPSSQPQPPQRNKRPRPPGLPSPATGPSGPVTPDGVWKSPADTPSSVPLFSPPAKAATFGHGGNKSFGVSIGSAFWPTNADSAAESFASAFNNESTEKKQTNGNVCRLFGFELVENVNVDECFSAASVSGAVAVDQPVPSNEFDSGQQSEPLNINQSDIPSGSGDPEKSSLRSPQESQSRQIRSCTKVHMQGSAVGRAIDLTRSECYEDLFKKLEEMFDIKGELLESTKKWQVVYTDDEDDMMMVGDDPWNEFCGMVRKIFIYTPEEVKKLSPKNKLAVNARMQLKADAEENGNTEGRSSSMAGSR

# Study 1
# Target: Serine/threonine-protein kinase DCLK2 (DCLK2, Homo sapiens, UniProt Q8N568)
# Sequence of UniProt Q8N568 (whole entry, looked up): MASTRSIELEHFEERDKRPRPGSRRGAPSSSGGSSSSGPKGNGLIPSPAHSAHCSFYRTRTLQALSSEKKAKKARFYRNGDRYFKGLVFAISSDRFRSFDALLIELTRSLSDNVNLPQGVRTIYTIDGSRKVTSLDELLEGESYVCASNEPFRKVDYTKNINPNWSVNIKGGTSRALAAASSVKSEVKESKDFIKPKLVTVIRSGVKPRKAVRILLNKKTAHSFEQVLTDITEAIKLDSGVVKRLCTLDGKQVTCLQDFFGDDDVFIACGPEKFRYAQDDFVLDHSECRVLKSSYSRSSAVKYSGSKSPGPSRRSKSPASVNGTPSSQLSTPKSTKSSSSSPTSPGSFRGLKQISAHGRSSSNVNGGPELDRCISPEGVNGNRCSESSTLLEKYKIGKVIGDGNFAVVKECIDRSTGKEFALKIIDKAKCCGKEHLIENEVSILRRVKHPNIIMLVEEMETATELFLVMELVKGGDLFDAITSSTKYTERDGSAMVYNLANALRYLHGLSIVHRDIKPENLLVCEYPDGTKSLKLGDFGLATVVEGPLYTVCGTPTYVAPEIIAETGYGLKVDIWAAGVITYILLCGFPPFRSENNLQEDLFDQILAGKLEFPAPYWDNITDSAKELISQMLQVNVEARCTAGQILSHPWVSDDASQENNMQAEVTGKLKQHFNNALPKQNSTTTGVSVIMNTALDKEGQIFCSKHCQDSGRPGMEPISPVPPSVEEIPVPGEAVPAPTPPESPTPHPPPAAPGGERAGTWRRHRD
# Read-out: enzyme activity
# Action: inhibitor
# Tested at: 0.5 µM
# Baseline: control
Structure (SMILES),remaining activity [%]
CN(C)c1ccc(C=C2C(=O)Nc3ccccc32)cc1,100
COc1ccc(OC)c2c(=S)c3ccccc3[nH]c12,94.6
CCOC(=O)c1c(C)[nH]c(/C=C2\C(=O)Nc3ccccc32)c1C,94.7
Cc1cccc(-c2[nH]c(C(C)(C)C)nc2-c2ccc3c(c2)OCO3)n1,101
CC(C)[C@H](CO)Nc1nc(Nc2cc(N)cc(Cl)c2)c2ncn(C(C)C)c2n1,105
Oc1ccc(-c2nc(-c3ccncc3)c(-c3ccc(F)cc3)[nH]2)cc1,102
COc1ccc(C(=O)Nc2sc3c(c2C(N)=O)CCCC3)cc1OC,98.6
O=C1NC(=O)C(c2cn(CCCO)c3ncccc23)=C1c1cnccn1,90.1
O=c1c2ccccc2[nH]c(=S)n1CCN1CCC(=C(c2ccc(F)cc2)c2ccc(F)cc2)CC1,101
Nc1[nH]nc2nc3ccccc3nc12,94.6
Nc1ncnc2n[nH]c(Nc3ccc(F)cc3)c12,99.5
Cn1c2ccccc2c2c3c(c4c5ccccc5n(CCC#N)c4c21)CNC3=O,84.7
COc1cc2nccc(Oc3ccc(NC(=S)NC(=O)c4ccccc4C)cc3)c2cc1OC,91.5
Nc1ccc2ncnc(NCCc3ccc(Oc4ccccc4)cc3)c2c1,99.1

# Study 2
# Host: human
# Medium: microsomes or S9
# Tested at: 2 µM
# Time: 0.5 h
SMILES,remaining compound [%]
O=S1(=O)CC2Sc3ncnc4ncn(c34)C2C1 (centres unmarked),> 99
CC1Cc2ccccc2N1C(=O)c1ccc(=O)n(CCC(=O)N2CCN(c3ccccn3)CC2)n1 (centres unmarked),2.65
OCCN(CC(O)c1ccc(F)c(F)c1)c1ccccc1 (centres unmarked),42.3
CC1CCc2c(sc(NC(=O)C3CCCN(S(C)(=O)=O)C3)c2C(N)=O)C1 (centres unmarked),> 100

# Study 3
# Sequence: B1 (IAA2)
# Method: two-hybrid
# Baseline: out of 4 tests
# Direction: higher = firmer interaction
# T1: itself; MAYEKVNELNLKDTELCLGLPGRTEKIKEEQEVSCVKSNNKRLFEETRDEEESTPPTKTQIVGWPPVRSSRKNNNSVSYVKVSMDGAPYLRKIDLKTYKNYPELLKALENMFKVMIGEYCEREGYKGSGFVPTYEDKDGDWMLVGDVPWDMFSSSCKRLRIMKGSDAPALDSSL
# B1: IAA2 (Arabidopsis thaliana, UniProt P49678); chain MAYEKVNELNLKDTELCLGLPGRTEKIKEEQEVSCVKSNNKRLFEETRDEEESTPPTKTQIVGWPPVRSSRKNNNSVSYVKVSMDGAPYLRKIDLKTYKNYPELLKALENMFKVMIGEYCEREGYKGSGFVPTYEDKDGDWMLVGDVPWDMFSSSCKRLRIMKGSDAPALDSSL
partner,positive tests
"ETT (Arabidopsis thaliana, UniProt O23661)",0
"ARF1 538-665 (Arabidopsis thaliana, UniProt Q8L7G0)",0
"T1, itself",2
"IAA13 (Arabidopsis thaliana, UniProt Q38831)",0
"IAA16 (Arabidopsis thaliana, UniProt O24407)",4
"ARF13 (Arabidopsis thaliana, UniProt Q9FX25)",1

# Study 4
# SMILES: Cn1nc(C(=O)NCc2ccc(C(=O)O)cc2)cc1-c1ccc2[nH]ccc2c1
# Read-out: cell-free assay
# Method: competition with immobilised ligand
# Tested at: 0.1 µM
target,remaining binding
"MAPK4 (Homo sapiens, UniProt P31152)",89%
"Cyclin-dependent kinase 4, with cyclin D3 (CDK4, Homo sapiens, UniProt P11802)",88%
"RET (Homo sapiens, UniProt P07949, M918T)",49%
"FGFR1 (Homo sapiens, UniProt P11362)",84%
"BMPR1B (Homo sapiens, UniProt O00238)",88%
